Measurements pooled from the literature.
Compare with care: the assays were run in different laboratories. ± gives the spread as reported.

SMILES	system	conditions	tissue uptake
CCCC[C@H](NC(=O)CNC(=O)CNC(=O)CN1CCN(CC(=O)O)CCN(CC(=O)O)CC1)C(=O)N[C@H]1CC(=O)NCCCC[C@@H](C(N)=O)NC(=O)[C@H](Cc2c[nH]c3ccccc23)NC(=O)[C@H](CCCNC(=N)N)NC(=O)[C@@H](Cc2ccccc2)NC(=O)[C@H](Cc2c[nH]cn2)NC1=O [copper-64 labelled]	female C57 mouse, B16/F1 melanoma, brain	intravenous, 0.037 MBq, 2 h	0.04 ± 0.02 %ID/g
O=C([O-])CN1CCN(CC(=O)[O-])CCN(CC(=O)NCCc2ccc3c(c2)C2C=CCC2C(c2cc4c(cc2Br)OCO4)N3)CCN(CC(=O)[O-])CC1.[111In+3] (centres unmarked)	mouse, Hec50 endometrial tumour, spleen	0.5 h post injection	0.76 ± 0.06 %ID/g
CN(C)c1ccc(-c2nc3ccc(OCCCCCN4CCN5CCN(CC4)CC(=O)[O][Al]([18F])[O]C(=O)C5)cc3s2)cc1	ICR mouse, lung	intravenous, 10 min	9.21 ± 2.33 %ID/g
CN1C(=O)[C@@H](Cc2ccc(O)c(I)c2)NC(=O)CNC(=O)[C@H](Cc2ccc3ccccc3c2)NC(=O)[C@H](CCCNC(=N)N)NC(=O)[C@H]1CCCNC(=O)c1ccc(CNC(=O)CN2CCN(CC(=O)O)CCN(CC(=O)O)CCN(CC(=O)O)CC2)cc1 [lutetium-177 labelled]	female CB-17 SCID mouse, Daudi xenograft, heart	intravenous, 6 h, CXCR4 blocking, together with: AMD3100 2 mg/kg coinjected	0.17 ± 0.02 %ID/g
CC(C)[C@H](NC(=O)[C@@H]1CCCN1C(=O)[C@H](CCCNC(=N)N)NC(=O)[C@H](CS)NC(=O)[C@H](Cc1c[nH]c2ccccc12)NC(=O)[C@H](CCCNC(=N)N)NC(=O)[C@@H](Cc1ccccc1)NC(=O)[C@H](Cc1c[nH]cn1)NC(=O)[C@H](CCC(=O)O)NC(=O)[C@H](CS)NC(=O)[C@H](CS)NC(=O)[C@@H]1CC(=O)N[C@@H](CCCNC(=N)N)C(=O)NCC(=O)N[C@@H](CC(=O)O)C(=O)N[C@H](Cc2ccc(O)cc2)C(=O)N1)C(N)=O [technetium-99m labelled]	C57 mouse, female, B16/F1 melanoma, heart	intravenous, 0.037 MBq, 4 h	0.31 ± 0.08 %ID/g
CCCC[C@H](NC(=O)CNC(=O)CNC(=O)CN1CCN(CC(=O)O)CCN(CC(=O)O)CCN(CC(=O)O)CC1)C(=O)N[C@H]1CC(=O)NCCCC[C@@H](C(N)=O)NC(=O)[C@H](Cc2c[nH]c3ccccc23)NC(=O)[C@H](CCCNC(=N)N)NC(=O)[C@@H](Cc2ccccc2)NC(=O)[C@H](Cc2c[nH]cn2)NC1=O [copper-64 labelled]	C57 mouse female B16/F1 melanoma, intestines	intravenous, 0.037 MBq, 0.5 h	7.19 ± 0.35 %ID
CC(C)[C@H](NC(=O)[C@@H]1CCCN1C(=O)[C@H](CCCNC(=N)N)NC(=O)[C@H](CS)NC(=O)[C@H](Cc1c[nH]c2ccccc12)NC(=O)[C@H](CCCNC(=N)N)NC(=O)[C@@H](Cc1ccccc1)NC(=O)[C@H](Cc1c[nH]cn1)NC(=O)[C@H](CCC(=O)O)NC(=O)[C@H](CS)NC(=O)[C@H](CS)NC(=O)CNC(=O)[C@@H]1CC(=O)N[C@@H](CCCNC(=N)N)C(=O)NCC(=O)N[C@@H](CC(=O)O)C(=O)N[C@H](Cc2ccc(O)cc2)C(=O)N1)C(N)=O [technetium-99m labelled]	C57 mouse, female, B16/F1 melanoma, stomach	intravenous, 0.037 MBq, 24 h	0.67 ± 0.11 %ID/g
CCCC[C@H](NC(=O)CNC(=O)CNC(=O)CN1CCN(CC(=O)O)CCN(CC(=O)O)CCN(CC(=O)O)CC1)C(=O)N[C@H]1CC(=O)NCCCC[C@@H](C(N)=O)NC(=O)[C@H](Cc2c[nH]c3ccccc23)NC(=O)[C@H](CCCNC(=N)N)NC(=O)[C@@H](Cc2ccccc2)NC(=O)[C@H](Cc2c[nH]cn2)NC1=O [lead-203 labelled]	C57 mouse, pancreas	intravenous, 0.056 MBq, 2 h	0.16 ± 0.12 %ID/g

For quick reference, copied from above:
SMILES	system	conditions	tissue uptake
CC(C)[C@H](NC(=O)[C@@H]1CCCN1C(=O)[C@H](CCCNC(=N)N)NC(=O)[C@H](CS)NC(=O)[C@H](Cc1c[nH]c2ccccc12)NC(=O)[C@H](CCCNC(=N)N)NC(=O)[C@@H](Cc1ccccc1)NC(=O)[C@H](Cc1c[nH]cn1)NC(=O)[C@H](CCC(=O)O)NC(=O)[C@H](CS)NC(=O)[C@H](CS)NC(=O)CNC(=O)[C@@H]1CC(=O)N[C@@H](CCCNC(=N)N)C(=O)NCC(=O)N[C@@H](CC(=O)O)C(=O)N[C@H](Cc2ccc(O)cc2)C(=O)N1)C(N)=O [technetium-99m labelled]	C57 mouse, female, B16/F1 melanoma, stomach	intravenous, 0.037 MBq, 24 h	0.67 ± 0.11 %ID/g
